Measured values gathered from unrelated publications.
Numbered parts are unrelated; each lists some results of a single study. Changes are numbered by the printed parent chain.

Set 1
Target: Ras GTPase-activating protein-binding protein 1, C-terminal RGG region (G3BP1, Homo sapiens, UniProt Q13283)
UniProt Q13283, sequence (whole entry, looked up): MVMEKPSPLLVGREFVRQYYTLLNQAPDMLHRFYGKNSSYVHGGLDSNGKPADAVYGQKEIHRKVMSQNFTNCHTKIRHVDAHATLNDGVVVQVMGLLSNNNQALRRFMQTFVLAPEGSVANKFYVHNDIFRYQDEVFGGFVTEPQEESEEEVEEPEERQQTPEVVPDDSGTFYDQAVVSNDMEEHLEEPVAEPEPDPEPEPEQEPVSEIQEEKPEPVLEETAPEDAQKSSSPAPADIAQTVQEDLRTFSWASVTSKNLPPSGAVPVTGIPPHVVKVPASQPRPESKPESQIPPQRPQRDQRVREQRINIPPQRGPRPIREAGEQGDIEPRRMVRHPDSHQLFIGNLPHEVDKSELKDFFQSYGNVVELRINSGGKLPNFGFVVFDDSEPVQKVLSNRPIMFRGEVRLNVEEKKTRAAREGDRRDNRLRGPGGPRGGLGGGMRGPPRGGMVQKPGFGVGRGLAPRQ
Technique: RNA Bind-n-Seq
Molecule type: RNA
Medium: in vitro
Concentration: 1 µM
Notes: whole 134-nt RNA, ends assumed
Added: 150 mM KCl
Reference: input library
Direction: higher = stronger binding
Shared flanks, not repeated: GGGAGUUCUACAGUCCGACGAUC … UGGAAUUCUCGGGUGUCAAGG
| Oligonucleotide | log2 enrichment |
| --- | --- |
| AAGACAUUUGUUGUAUUUAUGGUUGUAACUGUACAUGCUUAUCAGGAUGAGACUGAAAGAAGGUAGGGCAAAAAUGGUUGAAUCUAUUUU | -1.09 |
| UGGGAGGUGGAUUUAGUUUAUUUUUUUAGCUCAUUUCCAGGGGUGGGAAUUUUUUUUUAAUAUGUGUCAUGAAUAAAGUUGUUUUUGAAA | 2.97 |
| UCAAGUCCUGUGCUACACAUCGUAUGUACCGAAUCGGUUUUUGGUGGAAAAAGGAAAGUAUUAUGUUACGCCGUUCGGAUCUGCACUUCC | -1.15 |
| UGCCUACGUAAUUUUUUAUCUUGAAAUAUUCAAAAUUAGGAGCCAGAUGACCAAGAUGCUCCAGAUGAACAUGAGUCGCCUCCACCUGAA | -1.17 |
| UUUCUGCAGCAUUAGAGAAGGCCCAAGAAGAAGCCCGUCAGCAGCAAGAAACAUUAGCCAUUCAAGUAAGCAAUGGAUGAUGAAUUAGAG | -2.06 |

Set 2
Target: Sal-like protein 4, full length isoform B (SALL4, Homo sapiens, UniProt Q9UJQ4-2, residues 1-616)
Technique: universal PBM
Molecule type: double-stranded DNA, one strand shown
Medium: in vitro
Concentration: not given
Notes: 8-mer, flanks averaged, mean of replicates
Direction: higher = stronger binding
Construct (chain): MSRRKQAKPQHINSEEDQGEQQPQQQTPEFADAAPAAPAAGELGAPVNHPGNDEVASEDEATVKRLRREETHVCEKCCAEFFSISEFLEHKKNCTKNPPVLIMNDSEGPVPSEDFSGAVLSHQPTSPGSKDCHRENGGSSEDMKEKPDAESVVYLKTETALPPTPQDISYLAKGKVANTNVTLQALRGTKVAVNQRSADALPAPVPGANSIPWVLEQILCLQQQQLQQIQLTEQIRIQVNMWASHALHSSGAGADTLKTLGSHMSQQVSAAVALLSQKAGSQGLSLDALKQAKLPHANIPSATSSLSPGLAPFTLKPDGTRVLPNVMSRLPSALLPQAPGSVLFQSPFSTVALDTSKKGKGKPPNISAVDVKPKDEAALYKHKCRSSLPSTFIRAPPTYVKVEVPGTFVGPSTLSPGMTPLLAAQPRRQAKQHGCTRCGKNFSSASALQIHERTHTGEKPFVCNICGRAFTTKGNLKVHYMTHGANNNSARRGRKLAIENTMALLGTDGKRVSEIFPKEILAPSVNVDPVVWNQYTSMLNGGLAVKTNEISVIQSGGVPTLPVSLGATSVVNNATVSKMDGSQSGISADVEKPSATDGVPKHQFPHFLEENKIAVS
| Oligonucleotide | E-score |
| --- | --- |
| AGTAACAG | 0.157 |
| ATTGAACG | 0.158 |
| ATCGGGGA | 0.00833 |
| CGGAGACC | -0.249 |

Set 3
Target: CCNF, cyclin fold, Cln2 fusion (human)
Technique: yeast growth competition, sequencing
Medium: yeast
Notes: strong parent motif
Reference: not given
Direction: higher = stronger binding
Parent: RB1 docking peptide (human); PKPLKKLRFDIEG
| Variant | normalised enrichment score |
| --- | --- |
| PKTLKKLRFDIEG [P3T] | 0.498 |
| PKPLKKLRFDIES [G13S] | 1.63 |
| PKPLKKLRFDIEM [G13M] | 0.747 |
| PKPLKKLRFNIEG [D10N] | 1.64 |

Single results of other studies
| Molecule | target | assay | test system | setting | how to read | measurement | result |
| --- | --- | --- | --- | --- | --- | --- | --- |
| PhoQ, residues 284 288 289 292 302 303 QWGLFV | PhoP, residues 12 14 15 18 19 LWHVM (Escherichia coli, UniProt P23836) | Sort-seq, measured: YFP reporter | E. coli | PhoQ-PhoP variant library, added: 10 µM Mg2+ | reference: high Mg2+ state, higher = stronger signaling | fold induction | 4.06 |

Some of these lines once more (set 2):
| Oligonucleotide | E-score |
| --- | --- |
| AGTAACAG | 0.157 |
| CGGAGACC | -0.249 |
